Assay results pooled from the literature.
A part holds a random share of what one study measured.

Series 1 — technique: RNA Bind-n-Seq; form: RNA; medium: in vitro; concentration: not given; notes: RNA with constant flanks, ends assumed; relative to: input RNA pool; direction: higher = stronger binding
Target: RING finger protein unkempt homolog, zinc fingers 1-6, GST-SBP tag (UNK, Homo sapiens, UniProt Q9C0B0, residues 30-357)
Chain of UniProt Q9C0B0 (30-357, looked up): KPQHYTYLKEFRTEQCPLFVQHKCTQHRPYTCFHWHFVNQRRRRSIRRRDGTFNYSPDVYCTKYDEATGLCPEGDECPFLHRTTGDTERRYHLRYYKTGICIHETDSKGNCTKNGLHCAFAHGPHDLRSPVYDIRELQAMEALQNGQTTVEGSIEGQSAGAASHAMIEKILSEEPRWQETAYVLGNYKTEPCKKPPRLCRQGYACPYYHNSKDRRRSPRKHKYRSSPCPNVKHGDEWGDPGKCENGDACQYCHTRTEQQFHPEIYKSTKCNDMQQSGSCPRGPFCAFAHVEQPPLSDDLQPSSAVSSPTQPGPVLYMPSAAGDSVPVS
For `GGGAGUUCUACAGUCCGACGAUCGAGAAGUGGUCAGUUGCUAAGGAAGUGGAUUUCCCAGUAGGGGUUUCUGCACCUCACCUGUACCGUCGUUCUGCGCAUGUCCCCCACACAGUCCCCACUGUAUUUACCUGUUCUACUUGUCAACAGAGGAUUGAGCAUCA`, the bound/input enrichment was 0.179 ratio.
For `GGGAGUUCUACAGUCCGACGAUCAGCUAUGAUGAGAGCUAUUAUCAUCUGUGGUGGGAAAAGCUAUGUAAAUAGGUAGAUUGUACCGAGAGACUAUCUUGUGUUGUGCCUGUAUGAAUUUUUAAAAGUUGUUGACUGGAUUUUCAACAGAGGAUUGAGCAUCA`, the bound/input enrichment was 0.237 ratio.
With `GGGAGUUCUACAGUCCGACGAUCGCUCCUAUUAAUGAGGUGGCAAGAUUUAACCUGAUGCAGGUUGGCCGCCUUUUGCAGCAGCCCGCAAUGACUGGCACUGAAGAAGGAGAUCCCCGGACCAAAAAUAGCCUUGGAAAAUUUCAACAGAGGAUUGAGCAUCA` the bound/input enrichment was 0.356 ratio.
The bound/input enrichment of `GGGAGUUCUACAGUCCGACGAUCAGAGCGUUUGUUAUAAGACGUAACGUAACCUACUGUUCAUGUUUGCUCUGGUCUGAAGUGUUCCGCUGUUGAGCUGGAUUCCUUAGGAGACCAAAUUAAGAUGGCUUAAAUUACAUCUUACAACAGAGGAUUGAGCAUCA` is reported as 0.323 ratio.
`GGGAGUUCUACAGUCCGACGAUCAUUAUAUAUGAUCGUUUUUCUGAUCCUAAGUUUGUUGAGCAGUUAAUCACAUUUCUAUCUUCCGAAGACAGAAAAGGAAGAGAUAAGUUUAGUCCCCGGCGUUUCUGCCUCUUUAAGGGUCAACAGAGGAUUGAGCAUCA` has a bound/input enrichment of 0.27 ratio.
For `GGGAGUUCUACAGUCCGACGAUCGUACAGUAGACGAGGCUUCCUUGGAAUGGUUUGCCCCGCUGCAUUGGUUUGGGUUUAAGCCCGUUAUACUUCUGUCACUAUUCUAAGUUAAAUGCAAAACUUUCAAGUAGUUUUAAUGAACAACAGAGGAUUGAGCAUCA`, the bound/input enrichment was 0.38 ratio.
`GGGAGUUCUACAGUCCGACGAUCCUGCGCUCGCUGGCCUUCAGGAAGGAGUUCCAGGACGCUAGCCUCCGCAGUAGCACCUUCCGCUCCUUUGACAAUGACAUAGAGAACCACCUCAUCGGUGGGCACAAUGUGGUUCAGCCCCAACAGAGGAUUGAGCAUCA` has a bound/input enrichment of 0.154 ratio.
With `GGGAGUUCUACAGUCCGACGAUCAAACGGCAGGAAGACCCUGACCACUGUCCAAGGGAUCGCUGAUGAUUACGAUAAAAAGAAACCCGUGAAGGCGUUUAAGAAGAAGUUUGCCUGCAAUGGUACUGUAAUUGAGCAUCCAGACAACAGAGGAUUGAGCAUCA` the bound/input enrichment was 0.151 ratio.
With `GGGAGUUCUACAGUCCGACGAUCCCUCUACCAGAUGACUAUAAUUGCAACGUAGAGCUUGCUCUGACUUCUGAUGGCAGGACAACCGUAUGCUACCACCCUUCUGUGGACAUUCCAUAUGAACACACAAAACCUAUCCCUCGGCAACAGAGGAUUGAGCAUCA` the bound/input enrichment was 0.167 ratio.
The bound/input enrichment of `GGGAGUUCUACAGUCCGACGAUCAGAGAAGAGUUGGUUGAUCGUGUUUUUGAUGAAAGCCUCAACUUCCGAAAGAUUCCUCCAUCCGUUCAUUCCAAAACACCAGAAGGAAACAACGGUCGAUCUGGUGAUCCAAGACCUCAACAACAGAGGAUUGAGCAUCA` is reported as 0.116 ratio.
`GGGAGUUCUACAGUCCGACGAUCAUGCUUUCAGUAGCAGGAAUGGCAUUGUUUAAAAAGCUGAUGGCAGGGUAAGCAUUUGGGUCCGUGUUUUAUUAACAUAUUUGUAAGUACUUGUUCAUUGUGGAAAUGUGUCCUUGACUACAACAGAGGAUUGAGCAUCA` has a bound/input enrichment of 0.27 ratio.

Series 2 — technique: aptamer microarray, sandwich; form: DNA with 2'F-ANA; medium: in vitro; concentration: 200 nM; added: Cy3 exosite-II aptamer, 400 nM; direction: higher = stronger binding; strand: GGTTGGTGTGGTTGG
Target: Prothrombin, mature alpha-thrombin (F2, Homo sapiens, UniProt P00734)
Notes: whole 15-mer aptamer, many near background
For `2'F-ANA at 3 5 6 7 9 10 11 13`, “mean fluorescence intensity” read 51.8 a.u.
Under “mean fluorescence intensity”, `2'F-ANA at 1 4 9 12 13 14 15` is recorded as 129 a.u.
`2'F-ANA at 1 2 3 4 5 6 7 8 10 11 13 15` — result for “mean fluorescence intensity”: 56.7 a.u.
For `2'F-ANA at 1 2 4 5 6 7 14 15`, “mean fluorescence intensity” read 49.2 a.u.
For `2'F-ANA at 2 6 8 9 10 11 13`, “mean fluorescence intensity” read 93.5 a.u.
`2'F-ANA at 1 2 3 7 11 13 14`: “mean fluorescence intensity” 70.6 a.u.
`2'F-ANA at 1 2 5 6 7 10 12 13 15`: “mean fluorescence intensity” 46.1 a.u.
For `2'F-ANA at 1 2 3 5 7 9 10 11 12 14`, “mean fluorescence intensity” read 46.2 a.u.
`2'F-ANA at 1 2 4 5 6 7 8 10 12 13` — result for “mean fluorescence intensity”: 73.2 a.u.
`2'F-ANA at 2 4 5 13 15`: “mean fluorescence intensity” 52.4 a.u.
`2'F-ANA at 2 4 5 7 10 11 12 13 14`: “mean fluorescence intensity” 51.3 a.u.
Under “mean fluorescence intensity”, `2'F-ANA at 1 2 6 10 11 12` is recorded as 62.2 a.u.
`2'F-ANA at 3 6 7 8 9 11 14` — result for “mean fluorescence intensity”: 511 a.u.
For `2'F-ANA at 1 2 3 4 9 10 11 12 13 14`, “mean fluorescence intensity” read 53.6 a.u.
`2'F-ANA at 1 3 4 7 9 12 14 15` — result for “mean fluorescence intensity”: 86.1 a.u.
Under “mean fluorescence intensity”, `2'F-ANA at 2 4 5 6 7 8 9 10 13 14 15` is recorded as 53.9 a.u.
`2'F-ANA at 3 5 6 8 11 13 14 15` — result for “mean fluorescence intensity”: 54.1 a.u.

Series 3 — technique: protein-binding microarray; form: double-stranded DNA, one strand shown; medium: in vitro; concentration: 250 nM; notes: 60-bp whole probe; added: salmon DNA 0.4 mg/ml; relative to: random background probes; direction: higher = stronger binding; constant ends, left off below: GCCTAGCAC … GTCTTGATTCGCTTGACGCTGCTG
Target: Interferon regulatory factor 5, full length, phosphomimetic (IRF5, Homo sapiens, UniProt Q13568-2, residues 1-514, K96S/S451D/S453D/S456D/S462D)
The log fluorescence of `TTAAATTTCAGTATCGATTAGTGCTAG` is reported as 9.13 z-score.
`TTGGGACTGGGTATCGGTTAGTGCTAG` has a log fluorescence of 3.72 z-score.
`TAAGGTCTCGGACTGGGTTAGTGCTAG` has a log fluorescence of -0.445 z-score.
`TTAGATGCCAGTTTCGATTAGTGCTAG` has a log fluorescence of 9.77 z-score.
The log fluorescence of `GACGGTATCGACTTTCGGAACGTGCTA` is reported as 7.54 z-score.
The log fluorescence of `TCAACTGTGTGTTTGAGACTGTGCTAG` is reported as -0.376 z-score.
The log fluorescence of `TCCTGTATGGATGTGTCTTAGTGCTAG` is reported as -0.0889 z-score.
`GACGGACTGGGGCTGGGGACGTGCTAG` has a log fluorescence of -0.327 z-score.
`TTAGGTTTCCCTTTCCTTTAGTGCTAG` gave a log fluorescence of 1.72 z-score.
`TTATGTATCGGGTATCGGTTAGTGCTA` has a log fluorescence of 6.87 z-score.
The log fluorescence of `CCGTAGCTTCCTTTCGCCGCGTGCTAG` is reported as 1.38 z-score.
The log fluorescence of `GACGGTTTCGGGTTTGGGGACGTGCTA` is reported as 6.83 z-score.
`GAGGGTGTTCTTTTCTGTTGGTGCTAG` has a log fluorescence of 0.617 z-score.
`GACGAACAGAGTATCGAGACGTGCTAG` has a log fluorescence of 0.922 z-score.
For `TTAGGTTCCCTTTTCCTTTTGTGCTAG`, the log fluorescence was 0.793 z-score.
The log fluorescence of `GACGAACTGAGTATCGAGAGGTGCTAG` is reported as 1.64 z-score.
For `GACGAACTGTGGTATCGAGACGTGCTA`, the log fluorescence was 0.716 z-score.
`GACGGTATACTACTGCTGACGTGCTAG` gave a log fluorescence of -0.134 z-score.
The log fluorescence of `TTAGGTATCGGTTTCGATTAGTGCTAG` is reported as 10.9 z-score.
With `GACGATTTCAGTTCCGAGAGGTGCTAG` the log fluorescence was 1.29 z-score.
The log fluorescence of `GACGGACTTCTTATCCTGACGTGCTAG` is reported as -0.241 z-score.
`TTTGGACTGGGTTTCGGTTAGTGCTAG` has a log fluorescence of 8.14 z-score.
`TCAGTGATCAGTCTGATACTGTGCTAG` gave a log fluorescence of -0.0245 z-score.
For `TCACCTTGGGCTCTAGGACTGTGCTAG`, the log fluorescence was -0.417 z-score.
For `TGATCTTCCTTCATGGCCTGGTGCTAG`, the log fluorescence was -0.00447 z-score.

Series 4 — technique: RNA Bind-n-Seq; form: RNA; medium: in vitro; concentration: 20 nM; notes: 6-mer, flanks averaged, single round; added: 150 mM KCl; relative to: input library; direction: higher = stronger binding
Target: TAR DNA-binding protein 43, full length, His tag (TARDBP, Homo sapiens, UniProt Q13148, residues 1-414)
`UAUUGU`: “6-mer enrichment (R)” 0.654.
Under “6-mer enrichment (R)”, `AUGCUC` is recorded as 0.588.
For `ACAACA`, “6-mer enrichment (R)” read 0.769.
`GCUCCU`: “6-mer enrichment (R)” 0.633.
Under “6-mer enrichment (R)”, `CGGGUC` is recorded as 1.8.
`UAUCAA`: “6-mer enrichment (R)” 0.572.
`UGAGGG` — result for “6-mer enrichment (R)”: 4.04.
For `CCGUGC`, “6-mer enrichment (R)” read 0.788.
Under “6-mer enrichment (R)”, `UGGGUA` is recorded as 1.85.
For `AGUACC`, “6-mer enrichment (R)” read 0.635.
For `AUCUCG`, “6-mer enrichment (R)” read 0.59.
Under “6-mer enrichment (R)”, `CCUACC` is recorded as 0.609.
For `GGAAAG`, “6-mer enrichment (R)” read 2.15.
Under “6-mer enrichment (R)”, `UUUAAA` is recorded as 0.634.
`UCUCAU` — result for “6-mer enrichment (R)”: 0.54.
`ACUCAU` — result for “6-mer enrichment (R)”: 0.576.
`GUCUGC` — result for “6-mer enrichment (R)”: 0.843.

Series 5 — technique: protein binding microarray; form: double-stranded DNA, one strand shown; medium: in vitro; concentration: not given; relative to: not given; direction: higher = stronger binding
Target: Histone acetyltransferase KAT6A, both winged helices, GST fusion (KAT6A, Homo sapiens, UniProt Q92794, residues 1-181)
Notes: 8-mer, flanks averaged, mean of 2 arrays, mostly near background
Construct (chain): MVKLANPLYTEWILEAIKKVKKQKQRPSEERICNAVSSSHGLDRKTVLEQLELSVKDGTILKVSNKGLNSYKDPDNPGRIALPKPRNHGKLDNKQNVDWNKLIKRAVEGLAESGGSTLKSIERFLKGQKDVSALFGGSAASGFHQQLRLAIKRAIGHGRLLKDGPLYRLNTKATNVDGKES
`CCATACTC` gave an E-score of -0.109.
For `ACCACTCC`, the E-score was -0.065.
`ATCTCGGA` has an E-score of 0.0193.
`AGCGTCAG` gave an E-score of 0.0301.
`AATTCCGA` gave an E-score of 0.0239.
`TCTCGACA` gave an E-score of -0.096.
For `ATATGGAA`, the E-score was -0.0479.
`GTTTACTA` has an E-score of -0.00625.
The E-score of `CAGGAGAA` is reported as -0.189.
`ACAGGTCC` gave an E-score of -0.0365.
With `ACGAGCCG` the E-score was 0.151.
`CATTTTTA` has an E-score of 0.0255.
For `ACGGGCGA`, the E-score was 0.276.
`ACAGAAGC` has an E-score of -0.0571.
For `GCGTTTAC`, the E-score was 0.185.
`TAGATAGA` gave an E-score of -0.161.
For `ATGTGTTG`, the E-score was -0.08.
`ACTCCGAT` gave an E-score of 0.013.
`CTCGGCCA` gave an E-score of 0.067.
`ACAGAAAG` gave an E-score of -0.184.
The E-score of `ACTTCCTG` is reported as -0.166.
The E-score of `GAACGTTA` is reported as 0.149.
The E-score of `CATCCGCG` is reported as 0.262.
For `AGTACTTC`, the E-score was -0.0436.
For `AAAGTCCT`, the E-score was -0.165.

A few entries again (series 2):
`2'F-ANA at 1 2 4 5 6 7 8 10 12 13` — result for “mean fluorescence intensity”: 73.2 a.u.
`2'F-ANA at 1 2 5 6 7 10 12 13 15`: “mean fluorescence intensity” 46.1 a.u.
For `2'F-ANA at 1 2 4 5 6 7 14 15`, “mean fluorescence intensity” read 49.2 a.u.
`2'F-ANA at 1 2 3 7 11 13 14`: “mean fluorescence intensity” 70.6 a.u.
`2'F-ANA at 1 3 4 7 9 12 14 15` — result for “mean fluorescence intensity”: 86.1 a.u.
For `2'F-ANA at 1 2 3 5 7 9 10 11 12 14`, “mean fluorescence intensity” read 46.2 a.u.
`2'F-ANA at 3 5 6 8 11 13 14 15` — result for “mean fluorescence intensity”: 54.1 a.u.
